Measured values collected from several papers.
Lines come from different studies, so protocols differ. Several values in a cell are separate wells, animals, samples, runs or records. ± gives the spread as reported.
UniProt O76090, sequence (whole entry, unmodified, looked up): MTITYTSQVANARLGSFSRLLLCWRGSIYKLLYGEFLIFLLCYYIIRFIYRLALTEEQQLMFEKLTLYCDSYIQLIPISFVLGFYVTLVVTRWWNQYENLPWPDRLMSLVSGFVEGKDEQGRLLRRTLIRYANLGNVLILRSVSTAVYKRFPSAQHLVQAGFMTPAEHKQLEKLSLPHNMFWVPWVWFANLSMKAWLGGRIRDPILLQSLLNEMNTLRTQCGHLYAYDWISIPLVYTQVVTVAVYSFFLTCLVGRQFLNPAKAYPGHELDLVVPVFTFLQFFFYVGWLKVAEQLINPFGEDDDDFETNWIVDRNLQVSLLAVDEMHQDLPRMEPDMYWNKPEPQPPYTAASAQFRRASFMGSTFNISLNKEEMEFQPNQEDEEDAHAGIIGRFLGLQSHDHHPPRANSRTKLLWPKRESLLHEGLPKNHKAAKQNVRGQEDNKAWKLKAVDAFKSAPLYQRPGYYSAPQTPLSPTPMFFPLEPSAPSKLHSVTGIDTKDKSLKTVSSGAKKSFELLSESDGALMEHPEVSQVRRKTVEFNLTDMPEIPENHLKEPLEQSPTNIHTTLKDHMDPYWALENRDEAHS
UniProt P41180, sequence (whole entry, looked up): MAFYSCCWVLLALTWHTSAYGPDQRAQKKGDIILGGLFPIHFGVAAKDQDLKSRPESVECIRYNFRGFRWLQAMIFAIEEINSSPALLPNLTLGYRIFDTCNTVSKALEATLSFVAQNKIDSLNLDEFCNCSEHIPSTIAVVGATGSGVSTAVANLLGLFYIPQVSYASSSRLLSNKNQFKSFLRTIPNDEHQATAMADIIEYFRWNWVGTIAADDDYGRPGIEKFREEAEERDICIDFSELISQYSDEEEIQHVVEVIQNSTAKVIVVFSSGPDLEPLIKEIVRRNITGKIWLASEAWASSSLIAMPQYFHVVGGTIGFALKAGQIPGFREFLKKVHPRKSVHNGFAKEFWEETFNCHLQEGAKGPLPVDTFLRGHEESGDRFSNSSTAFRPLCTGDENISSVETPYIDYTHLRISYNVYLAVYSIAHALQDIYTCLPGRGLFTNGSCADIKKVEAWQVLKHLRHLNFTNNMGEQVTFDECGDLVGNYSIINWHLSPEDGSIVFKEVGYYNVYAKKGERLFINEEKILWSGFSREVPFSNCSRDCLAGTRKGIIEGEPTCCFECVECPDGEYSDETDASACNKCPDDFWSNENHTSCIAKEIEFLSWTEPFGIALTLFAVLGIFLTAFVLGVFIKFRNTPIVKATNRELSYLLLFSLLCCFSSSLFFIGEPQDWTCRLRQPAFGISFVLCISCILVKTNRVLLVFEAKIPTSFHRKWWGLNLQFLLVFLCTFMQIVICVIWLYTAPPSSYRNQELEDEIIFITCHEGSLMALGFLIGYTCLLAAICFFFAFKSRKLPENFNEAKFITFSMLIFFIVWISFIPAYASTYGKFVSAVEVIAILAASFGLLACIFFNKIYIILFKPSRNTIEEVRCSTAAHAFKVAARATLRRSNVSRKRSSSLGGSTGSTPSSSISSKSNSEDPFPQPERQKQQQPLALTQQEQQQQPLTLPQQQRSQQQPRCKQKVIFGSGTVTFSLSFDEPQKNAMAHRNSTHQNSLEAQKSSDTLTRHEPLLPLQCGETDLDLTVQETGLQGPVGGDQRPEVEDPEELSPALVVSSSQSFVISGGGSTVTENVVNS
UniProt Q86X55, sequence (whole entry, looked up): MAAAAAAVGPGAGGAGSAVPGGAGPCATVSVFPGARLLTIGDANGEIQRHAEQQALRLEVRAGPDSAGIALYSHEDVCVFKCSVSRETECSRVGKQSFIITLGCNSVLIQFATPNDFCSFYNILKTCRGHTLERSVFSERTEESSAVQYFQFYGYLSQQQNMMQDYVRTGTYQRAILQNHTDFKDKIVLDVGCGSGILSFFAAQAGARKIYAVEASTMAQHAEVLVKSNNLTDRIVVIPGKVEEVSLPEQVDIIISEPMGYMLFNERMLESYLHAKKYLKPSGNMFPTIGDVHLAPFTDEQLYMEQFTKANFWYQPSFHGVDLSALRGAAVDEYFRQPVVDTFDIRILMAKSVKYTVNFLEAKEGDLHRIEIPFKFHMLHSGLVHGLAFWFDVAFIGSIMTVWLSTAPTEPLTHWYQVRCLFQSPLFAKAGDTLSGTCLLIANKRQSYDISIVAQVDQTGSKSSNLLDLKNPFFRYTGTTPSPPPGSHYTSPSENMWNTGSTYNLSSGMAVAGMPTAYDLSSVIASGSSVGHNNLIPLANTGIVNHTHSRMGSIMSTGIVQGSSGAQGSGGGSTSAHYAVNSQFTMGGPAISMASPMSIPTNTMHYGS
UniProt Q04609, sequence (whole entry, looked up): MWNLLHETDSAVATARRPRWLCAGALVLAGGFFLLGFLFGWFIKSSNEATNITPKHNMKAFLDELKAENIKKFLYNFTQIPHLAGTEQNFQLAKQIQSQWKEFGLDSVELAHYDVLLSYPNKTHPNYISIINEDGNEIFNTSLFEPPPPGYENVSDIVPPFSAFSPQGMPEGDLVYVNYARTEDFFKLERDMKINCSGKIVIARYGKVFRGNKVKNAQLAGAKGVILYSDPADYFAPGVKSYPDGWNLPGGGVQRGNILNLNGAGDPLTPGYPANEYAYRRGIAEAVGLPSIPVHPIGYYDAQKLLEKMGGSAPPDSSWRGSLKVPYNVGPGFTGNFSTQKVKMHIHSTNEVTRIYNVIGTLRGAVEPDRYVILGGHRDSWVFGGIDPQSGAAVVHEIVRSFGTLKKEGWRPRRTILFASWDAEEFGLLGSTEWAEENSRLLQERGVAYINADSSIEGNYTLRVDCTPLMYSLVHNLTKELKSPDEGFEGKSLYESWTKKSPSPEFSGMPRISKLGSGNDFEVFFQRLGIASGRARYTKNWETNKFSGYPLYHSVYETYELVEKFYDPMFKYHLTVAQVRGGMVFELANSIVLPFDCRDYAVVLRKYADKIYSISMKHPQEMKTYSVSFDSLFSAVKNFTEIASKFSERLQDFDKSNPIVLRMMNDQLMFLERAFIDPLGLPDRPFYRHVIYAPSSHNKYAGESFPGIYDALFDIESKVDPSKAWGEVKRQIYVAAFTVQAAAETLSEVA
UniProt Q16611, sequence (whole entry, looked up): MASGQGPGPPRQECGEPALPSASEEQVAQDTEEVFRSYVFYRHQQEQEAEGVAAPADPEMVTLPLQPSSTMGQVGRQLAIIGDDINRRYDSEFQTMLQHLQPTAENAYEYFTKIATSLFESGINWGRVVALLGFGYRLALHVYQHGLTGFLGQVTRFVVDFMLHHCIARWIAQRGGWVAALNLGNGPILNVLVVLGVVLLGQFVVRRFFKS
UniProt Q9Y3R4, sequence (whole entry, looked up): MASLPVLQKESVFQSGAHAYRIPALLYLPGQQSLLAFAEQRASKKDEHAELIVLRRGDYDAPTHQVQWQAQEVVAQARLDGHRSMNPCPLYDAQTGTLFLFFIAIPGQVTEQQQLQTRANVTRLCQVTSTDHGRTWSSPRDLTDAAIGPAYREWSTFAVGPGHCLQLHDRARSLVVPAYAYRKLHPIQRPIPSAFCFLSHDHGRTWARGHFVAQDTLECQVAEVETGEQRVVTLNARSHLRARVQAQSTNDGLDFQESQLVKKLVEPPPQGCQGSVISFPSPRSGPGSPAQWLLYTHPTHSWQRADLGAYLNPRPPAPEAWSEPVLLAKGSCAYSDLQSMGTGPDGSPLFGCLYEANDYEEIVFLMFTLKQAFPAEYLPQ
UniProt P31749, sequence (whole entry, looked up): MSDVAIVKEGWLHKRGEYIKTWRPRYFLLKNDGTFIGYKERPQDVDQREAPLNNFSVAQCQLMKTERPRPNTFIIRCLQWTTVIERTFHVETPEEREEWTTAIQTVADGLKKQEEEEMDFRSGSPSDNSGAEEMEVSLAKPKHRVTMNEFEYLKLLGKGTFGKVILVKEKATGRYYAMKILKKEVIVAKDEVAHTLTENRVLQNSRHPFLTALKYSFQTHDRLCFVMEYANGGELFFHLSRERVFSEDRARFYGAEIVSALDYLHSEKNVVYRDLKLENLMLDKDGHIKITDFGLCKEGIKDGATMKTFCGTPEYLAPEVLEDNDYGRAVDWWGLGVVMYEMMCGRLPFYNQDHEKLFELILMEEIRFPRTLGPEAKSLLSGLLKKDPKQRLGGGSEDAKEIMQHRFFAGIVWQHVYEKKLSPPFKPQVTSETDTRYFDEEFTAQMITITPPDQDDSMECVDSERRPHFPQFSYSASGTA

SMILES | target or system | assay | system | conditions | how to read | endpoint | value
CC1(C)CN(CCCCC(=O)N[C@H](Cc2ccccc2)C(=O)N[C@H](Cc2ccccc2)C(=O)N[C@H](CCCCNC(=O)CCCCCCC(=O)NCCCC[C@H](NC(=O)N[C@@H](CCC(=O)O)C(=O)O)C(=O)O)C(=O)O)CC[N]2CC(C)(C)[S][Tc]2(=[O])[S]1 (stereo partly drawn) [technetium-99m labelled] | FOLH1 (Homo sapiens, UniProt Q04609) | radioligand, saturation binding | LNCaP | 1 h, 37 °C, together with: [99mTc]TcO-6 |  | Bmax | 4 ± 0.4 pmol/mg
CC1(C)C(/C=C/C=C2/N(CCCc3ccccc3)c3ccc4ccccc4c3C2(C)C)=[N+](CCCc2ccccc2)c2ccc3ccccc3c21.[Br-] | CARM1 (Homo sapiens, UniProt Q86X55) | inhibitor, filter binding |  | together with: histone H3.3 substrate |  | Hill coefficient | 3.12
O=c1nc(SCc2cc(F)cc(C(F)(F)F)c2)nc(SCc2csc3ccc(Cl)cc23)[nH]1 | TOP2A (Homo sapiens, UniProt P11388) | decatenation |  | 0.12 µM |  | mean decatenated DNA | 0%
[N-]=[N+]=NCC(=O)N[C@H]1[C@H]([C@H](O)[C@H](O)CO)O[C@@](O[C@H]2[C@@H](O)[C@@H](CO)O[C@@H](Oc3ccc([N+](=O)[O-])cc3)[C@@H]2O)(C(=O)O)C[C@@H]1O | Sialidase-2 (Homo sapiens, UniProt Q9Y3R4) | substrate |  | 0.3 mM, 30 min, pH 5.0, 37 °C |  | sialic acid release | 83%
Cc1cc(-c2ccnc3[nH]cc(F)c23)cc(F)c1[C@@]1(O)[C@H](C)CN(C2CCS(=O)(=O)CC2)C[C@@H]1C | AKT1 (Homo sapiens, UniProt P31749) | ATP/ADP probe binding, KiNativ | HEK293T lysate | 0.1 µM, ATP loop peptide |  | probe labelling inhibition | 5%
CC[C@H](C)[C@H](NC(=O)[C@H](C)NC(=O)[C@H](CC(=O)O)NC(C)=O)C(=O)N[C@H](C(=O)N[C@@H](CCC(N)=O)C(=O)N[C@@H](CCSC)C(=O)N[C@H](C(=O)N[C@H](C(=O)N[C@@H](CCC(=O)O)C(=O)N[C@@H](CC(C)C)C(=O)N[C@@H](CC(C)C)C(=O)N[C@@H](CCCCN)C(=O)N[C@@H](CCCNC(=N)N)C(=O)N[C@H](C(=O)NCC(=O)N[C@@H](CC(=O)O)C(=O)N[C@@H](CCC(N)=O)C(=O)N[C@@H](Cc1c[nH]c2ccccc12)C(=O)N[C@@H](CCC(=O)O)C(=O)N[C@@H](CCC(=O)O)C(=O)N[C@@H](CCC(=O)O)C(=O)N[C@@H](CCC(N)=O)C(=O)N[C@@H](CO)C(=O)N[C@@H](CC(C)C)C(=O)N[C@@H](C)C(N)=O)C(C)C)C(C)C)[C@@H](C)CC)[C@@H](C)CC | BAK1 (Homo sapiens, UniProt Q16611) | binding, bio-layer interferometry |  | pH 7.5, 2% DMSO |  | koff | 0.14 s⁻¹
CC[C@H](C)[C@H](NC(=O)[C@H](Cc1ccccc1)NC(=O)[C@H](CCC(=O)O)NC(=O)[C@H](CCCNC(=N)N)NC(=O)[C@H](C)NC(=O)[C@H](C)NC(=O)[C@H](CCC(N)=O)NC(=O)[C@H](CCC(=O)O)NC(=O)[C@H](CCC(=O)O)NC(=O)[C@H](CC(C)C)NC(=O)[C@H](Cc1ccc(O)cc1)NC(=O)[C@H](CO)NC(=O)[C@H](CO)NC(=O)[C@@H](NC(=O)[C@H](CC(=O)O)NC(=O)[C@H](CO)NC(=O)[C@@H](NC(=O)[C@H](Cc1ccccc1)NC(=O)[C@@H](NC(=O)CNC(=O)[C@H](CCC(=O)O)NC(=O)[C@H](C)NC(=O)CCc1cnc[nH]1)[C@@H](C)O)[C@@H](C)O)C(C)C)C(=O)N[C@@H](C)C(=O)N[C@@H](Cc1c[nH]c2ccccc12)C(=O)N[C@@H](CC(C)C)C(=O)N[C@H](C(=O)N[C@@H](CCCNC(=N)N)C(=O)NCC(=O)N[C@@H](CCCNC(=N)N)C(=O)N[C@@H](CCCCNC(=O)COCCOCCNC(=O)COCCOCCNC(=O)CC[C@H](NC(=O)CCCCCCCCCCCCCCCCC(=O)O)C(=O)O)C(=O)NCC(=O)NCC(=O)N[C@@H](CO)C(=O)N[C@@H](CCCCNc1c(NCCCCCN(O)C(=O)CCC(=O)NCCCCCN(O)C(=O)CCC(=O)NCCCCCN(O)C(C)=O)c(=O)c1=O)C(=O)NCC(=O)NCC(=O)N[C@@H](CO)C(=O)N[C@@H](CCCCNc1c(NCCCCCN(O)C(=O)CCC(=O)NCCCCCN(O)C(=O)CCC(=O)NCCCCCN(O)C(C)=O)c(=O)c1=O)C(=O)NCC(=O)NCC(=O)N[C@@H](CO)C(=O)N[C@@H](CCCCNc1c(NCCCCCN(O)C(=O)CCC(=O)NCCCCCN(O)C(=O)CCC(=O)NCCCCCN(O)C(C)=O)c(=O)c1=O)C(=O)NCC(=O)NCC(=O)N[C@@H](CO)C(=O)N[C@@H](CCCCNc1c(NCCCCCN(O)C(=O)CCC(=O)NCCCCCN(O)C(=O)CCC(=O)NCCCCCN(O)C(C)=O)c(=O)c1=O)C(=O)O)C(C)C | GLP1R (Homo sapiens, UniProt P43220) | agonist, CRE luciferase reporter | BHK cells | metal-free DFO conjugate, together with: 1% HSA | baseline: parent peptide | fold potency loss | 7.1
O=C(NCCN1CCCC1=O)c1ccc(C2CCCCC2)cc1 |  | hepatocyte stability | cryopreserved rat hepatocytes | 1 µM |  | hepatic clearance | 46 mL/min/kg
Nc1ccc(C(=O)O)cc1 | BEST1, with wild-type BEST1 (Homo sapiens, UniProt O76090, D302A) | ion current, whole-cell patch clamp | HEK293 co-expressing mutant and wild-type | concentration not given, voltage 80 mV |  | current density | 17.1 pA/pF and 9.87 pA/pF and 28.1 pA/pF and 7.67 pA/pF and 17.2 pA/pF and 13.7 pA/pF
CN1CCN(c2cc(-c3ccncc3)c(-c3ccc4ccccc4c3)nn2)CC1 | CASR (Homo sapiens, UniProt P41180) | antagonist, FLIPR |  | 10 µM |  | inhibition | 40.4%
CCO[C@H](COc1ccc(C(F)(F)F)cc1)CSc1ccc(OCC(=O)O)c(C)c1 | Peroxisome proliferator-activated receptor delta (Rattus norvegicus, UniProt Q62879) | reporter gene, agonist, luciferase reporter | rat |  | baseline: maximal control activation | Emax | 66%
O=C(Nc1ccc(C2CCCCC2)cc1)[C@H]1CC1(F)F |  | hepatocyte stability | cryopreserved human hepatocytes | 1 µM |  | hepatic clearance | 18 mL/min/kg

Some of these lines once more:
SMILES | target or system | assay | system | conditions | how to read | endpoint | value
Nc1ccc(C(=O)O)cc1 | BEST1, with wild-type BEST1 (Homo sapiens, UniProt O76090, D302A) | ion current, whole-cell patch clamp | HEK293 co-expressing mutant and wild-type | concentration not given, voltage 80 mV |  | current density | 17.1 pA/pF and 9.87 pA/pF and 28.1 pA/pF and 7.67 pA/pF and 17.2 pA/pF and 13.7 pA/pF
